Assay results gathered from unrelated publications.
Compare with care: the assays were run in different laboratories.
PRKCB isoform beta-II: Protein kinase C beta type, isoform beta-II (PRKCB, Homo sapiens, UniProt P05771)
Chain of UniProt P05771 (whole entry, looked up): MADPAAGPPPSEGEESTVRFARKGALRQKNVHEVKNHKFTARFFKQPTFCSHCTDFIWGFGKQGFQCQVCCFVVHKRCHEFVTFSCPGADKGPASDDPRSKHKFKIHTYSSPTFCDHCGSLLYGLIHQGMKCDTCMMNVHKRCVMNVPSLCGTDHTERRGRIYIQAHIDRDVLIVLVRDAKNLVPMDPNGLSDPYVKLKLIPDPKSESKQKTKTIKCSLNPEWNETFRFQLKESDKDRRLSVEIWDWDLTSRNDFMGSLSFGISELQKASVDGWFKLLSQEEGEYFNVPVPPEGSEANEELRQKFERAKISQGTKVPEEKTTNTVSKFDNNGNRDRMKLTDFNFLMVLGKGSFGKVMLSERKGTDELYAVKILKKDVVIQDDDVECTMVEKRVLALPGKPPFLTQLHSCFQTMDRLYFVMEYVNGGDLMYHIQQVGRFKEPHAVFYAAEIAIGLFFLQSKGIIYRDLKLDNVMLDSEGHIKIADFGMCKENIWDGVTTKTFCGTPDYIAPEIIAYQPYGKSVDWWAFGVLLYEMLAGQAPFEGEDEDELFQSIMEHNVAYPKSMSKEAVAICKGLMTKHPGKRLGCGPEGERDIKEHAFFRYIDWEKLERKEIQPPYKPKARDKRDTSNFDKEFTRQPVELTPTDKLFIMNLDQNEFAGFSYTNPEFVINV
PRKCB isoform beta-I: Protein kinase C beta type, isoform beta-I (PRKCB, Homo sapiens, UniProt P05771)

Compound | target | assay | setting | how to read | remaining activity [%]
CC(C)(C)c1nc2c(s1)c1nc(N)ncc1c1ccc(NS(=O)(=O)c3c(F)cccc3F)c(F)c12 | PRKCB isoform beta-II | kinase activity, radiometric 33PanQinase | 1 µM | relative to: DMSO | 75
Cc1ccc(NC(=O)c2ccc(C)c(C(F)(F)F)c2)cc1C#Cc1nn(C2CCC(O)CC2)c2ncnc(N)c12 (stereo not drawn) | PRKCB isoform beta-II | enzyme activity | 10 µM, added: ATP 10 µM |  | 99
CCN(CC)c1ccc(C2=NNC(=O)CC2C)cc1[N+](=O)[O-] (stereo not drawn) | PRKCB isoform beta-I | kinase activity, inhibitor | 10 µM |  | 94
Cc1cnc(NC2CCOCC2)nc1-n1cnc(C(=O)NC(CN)c2cc(F)cc(Cl)c2)c1 (stereo not drawn) | PRKCB isoform beta-I | radiometric | 1 µM |  | 101
COc1cc(F)ccc1-c1ncnc(Nc2cccc(C[S@](C)(=N)=O)c2)n1 | PRKCB isoform beta-I | kinase activity | 10 µM, added: 10 µM ATP |  | 100
Cc1cc(NC(=O)c2cccc3cc(-c4cccc5[nH]nc(N)c45)ccc23)ccc1F | PRKCB isoform beta-II | enzyme activity, kinase profiling panel | 0.1 µM |  | 95
Cc1cc(Nc2cc(N3CCN(C)CC3)nc(Sc3ccc(NC(=O)C4CC4)cc3)n2)[nH]n1 | PRKCB isoform beta-II | kinase activity, KinaseProfiler | 0.03 µM, species human | relative to: control | 97
Cc1ccc(C(=O)NCc2ccsc2)cc1C#Cc1cn(C(C)C)c2ncnc(N)c12 | PRKCB isoform beta-I | kinase activity | 1 µM, added: ATP at Km |  | 100
CC(C)c1ccc(NC(=O)c2cccs2)c(-c2nc3ccccc3[nH]c2=O)c1 | PRKCB isoform beta-II | kinase activity | 1 µM |  | 95
CNc1ncc2c(/C=C/C(=O)N3CCC(OC)CC3)nn(Cc3cccc(C(F)(F)F)c3)c2n1 | PRKCB isoform beta-I | inhibitor | 1 µM | relative to: control | 95
CCCOc1ccc(OC)c(F)c1C(=O)c1ccc(C(=O)N[C@@H]2CNC[C@H]2NC(=O)c2ccc3[nH]ncc3c2)cc1 | PRKCB isoform beta-II | kinase activity | 10 µM |  | 87
COc1cc(-c2cncc3c2CN(C)Cc2cc(N4CCNCC4)ccc2-3)cc(OC)c1OC | PRKCB isoform beta-II | enzyme activity | 1 µM, added: 10 µM ATP | relative to: DMSO | 100
COc1cc(Cl)c(C(=O)N[C@@H](CN[C@H]2CC[C@@H](N)CC2)Cc2ccc(C#N)cc2)cc1-c1ccc(CN[C@H](C)c2ccc(C)cc2)o1 | PRKCB isoform beta-II | enzyme activity, KinaseProfiler panel | 1 µM |  | 99
CC(C)(O)[C@H]1CC[C@H](Nc2ccc3ncc(-c4cccc(C(F)(F)F)c4)n3n2)CC1 | PRKCB isoform beta-II | enzyme activity, inhibitor | 1 µM, added: 10 µM ATP | relative to: DMSO | 79.1
c1cnc2ccc(Nc3nc(NC4CC4)c4nc[nH]c4n3)cc2c1 | Protein kinase C beta type (PRKCB, Homo sapiens, UniProt P05771) | kinase activity, inhibitor, SelectScreen kinase profiling | 1 µM | relative to: control | 103

For quick reference, copied from above:
Compound | target | assay | setting | how to read | remaining activity [%]
COc1cc(-c2cncc3c2CN(C)Cc2cc(N4CCNCC4)ccc2-3)cc(OC)c1OC | PRKCB isoform beta-II | enzyme activity | 1 µM, added: 10 µM ATP | relative to: DMSO | 100
COc1cc(Cl)c(C(=O)N[C@@H](CN[C@H]2CC[C@@H](N)CC2)Cc2ccc(C#N)cc2)cc1-c1ccc(CN[C@H](C)c2ccc(C)cc2)o1 | PRKCB isoform beta-II | enzyme activity, KinaseProfiler panel | 1 µM |  | 99
